# Measured values collected from several papers.
# Lines come from different studies, so protocols differ. ± gives the spread as reported.
Compound,test system,conditions,tissue uptake
N=C(N)NCCC[C@@H]1NC(=O)[C@H](CC(=O)NC23CNCCNCC(N)(CNCCNC2)CNCCNC3)NC(=O)[C@@H](Cc2ccccc2)NC(=O)[C@H](CC(=O)O)NC(=O)CNC1=O [copper-64 labelled],"Nu/Nu mouse, male, tumour-bearing, lung","intravenous, 10 µCi, 1 h",1.59 ± 0.29 %ID/g
N=C(N)NCCC[C@@H]1NC(=O)[C@H](CCCCNC(=O)CCOCCOCCOCCOCCNC(=O)CC[C@H](NC(=O)[C@H](CCCCNC(=O)c2ccc(NN)nc2)NC(=O)c2ccc(NN)nc2)C(=O)NCCOCCOCCOCCOCCC(=O)NCCCC[C@@H]2NC(=O)[C@@H](Cc3ccccc3)NC(=O)[C@H](CC(=O)O)NC(=O)CNC(=O)[C@H](CCCNC(=N)N)NC2=O)NC(=O)[C@@H](Cc2ccccc2)NC(=O)[C@H](CC(=O)O)NC(=O)CNC1=O [technetium-99m labelled],"athymic nude mouse, female, U-87 MG xenograft, tumor","intravenous, 0.1 MBq, 1 h",9.74 ± 1.65 %ID/g
CCCC[C@H](NC(=O)CNC(=O)CNC(=O)c1ccc(NN)nc1)C(=O)N[C@H]1CC(=O)NCCCC[C@@H](C(N)=O)NC(=O)[C@H](Cc2c[nH]c3ccccc23)NC(=O)[C@H](CCCNC(=N)N)NC(=O)[C@@H](Cc2ccccc2)NC(=O)[C@H](Cc2c[nH]cn2)NC1=O [technetium-99m labelled],"C57 mouse, B16/F1 melanoma-bearing, skin","intravenous, 0.5 h",2.94 ± 0.14 %ID/g
CSCC[C@H](NC(=O)[C@H](CC(C)C)NC(=O)[C@H](Cc1c[nH]cn1)NC(=O)CNC(=O)[C@@H](NC(=O)[C@H](C)NC(=O)[C@H](Cc1c[nH]c2ccccc12)NC(=O)[C@H](CCC(N)=O)NC(=O)CCCCCNC(=O)CNC(=O)CNC(=O)CNC(=O)CSC(C)=O)C(C)C)C(N)=O [technetium-99m labelled],"Swiss mouse, spleen","intravenous, 18.5 MBq, 90 min",0.29 ± 0.08 %ID/g
CCCC[C@H](NC(=O)[C@H](Cc1cccs1)NC(=O)[C@H](Cc1c[nH]cn1)NC(=O)CCNC(=O)[C@@H](NC(=O)[C@H](C)NC(=O)[C@H](Cc1c[nH]c2ccccc12)NC(=O)[C@H](CCC(N)=O)NC(=O)[C@H](Cc1cccs1)NC(=O)CN1CCC(NC(=O)CN(CCN(CCN(CC(=O)O)CC(=O)O)CC(=O)O)CC(=O)O)CC1)C(C)C)C(N)=O [indium-111 labelled],"Swiss nu/nu mouse, male, PC-3 tumour xenograft, colon","intravenous, 10 pmol, 24 h",0.8 ± 0.2 %ID/g
N=C(N)NCCC[C@@H]1NC(=O)[C@H](CCCCNC(=O)CNC(=O)CNC(=O)CNC(=O)CC[C@H](NC(=O)CNC(=O)CNC(=O)CNC(=O)c2ccc(NN=Cc3ccccc3S(=O)(=O)O)nc2)C(=O)NCC(=O)NCC(=O)NCC(=O)NCCCC[C@@H]2NC(=O)[C@@H](Cc3ccccc3)NC(=O)[C@H](CC(=O)O)NC(=O)CNC(=O)[C@H](CCCNC(=N)N)NC2=O)NC(=O)[C@@H](Cc2ccccc2)NC(=O)[C@H](CC(=O)O)NC(=O)CNC1=O [technetium-99m labelled],"athymic nu/nu mouse, female, MDA-MB-435 xenograft, blood","intravenous, 120 min",0.38 ± 0.1 %ID/g
CSCC[C@H](NC(=O)[C@H](CC(C)C)NC(=O)[C@H](Cc1c[nH]cn1)NC(=O)CNC(=O)[C@@H](NC(=O)[C@H](C)NC(=O)[C@H](Cc1c[nH]c2ccccc12)NC(=O)[C@H](CCC(N)=O)NC(=O)[C@H](CC(N)=O)NC(=O)CNC(=O)[C@H](Cc1ccc(O)cc1)NC(=O)[C@H](CCCNC(=N)N)NC(=O)[C@H](CCC(N)=O)NC(=O)[C@@H]1CCCN1C(=O)CN1CCN(CC(=O)O)CCN(CC(=O)O)CCN(CC(=O)O)CC1)C(C)C)C(N)=O [indium-111 labelled],"Swiss nu/nu mouse, male, PC-3 tumour xenograft, colon","intravenous, 10 pmol, 1 h",2.1 ± 0.4 %ID/g
CCCC[C@H](NC(=O)CCCCCCCNC(=O)c1ccc(NN)nc1)C(=O)N[C@H]1CC(=O)NCCCC[C@@H](C(N)=O)NC(=O)[C@H](Cc2c[nH]c3ccccc23)NC(=O)[C@H](CCCNC(=N)N)NC(=O)[C@@H](Cc2ccccc2)NC(=O)[C@H](Cc2c[nH]cn2)NC1=O [technetium-99m labelled],"C57 mouse, B16/F1 melanoma, blood","2 h, with: NDP-MSH 10 µg (6.07 nmol) co-injected",0.82 ± 0.15 %ID/g
N=C(N)NCCC[C@@H]1NC(=O)[C@H](CCCCNC(=O)CNC(=O)CNC(=O)CNC(=O)c2ccc(NN=Cc3ccccc3S(=O)(=O)O)nc2)NC(=O)[C@@H](Cc2ccccc2)NC(=O)[C@H](CC(=O)O)NC(=O)CNC1=O [technetium-99m labelled],"athymic nu/nu mouse, female, U-87 MG glioma xenograft, muscle","intravenous, 120 min",0.64 ± 0.11 %ID/g

# Some of these lines once more:
Compound,test system,conditions,tissue uptake
N=C(N)NCCC[C@@H]1NC(=O)[C@H](CCCCNC(=O)CCOCCOCCOCCOCCNC(=O)CC[C@H](NC(=O)[C@H](CCCCNC(=O)c2ccc(NN)nc2)NC(=O)c2ccc(NN)nc2)C(=O)NCCOCCOCCOCCOCCC(=O)NCCCC[C@@H]2NC(=O)[C@@H](Cc3ccccc3)NC(=O)[C@H](CC(=O)O)NC(=O)CNC(=O)[C@H](CCCNC(=N)N)NC2=O)NC(=O)[C@@H](Cc2ccccc2)NC(=O)[C@H](CC(=O)O)NC(=O)CNC1=O [technetium-99m labelled],"athymic nude mouse, female, U-87 MG xenograft, tumor","intravenous, 0.1 MBq, 1 h",9.74 ± 1.65 %ID/g
